Published values pooled from the literature.
A part holds a random share of what one study measured.

Set 1 — technique: RNA Bind-n-Seq; form: RNA; medium: in vitro; tested at: 200 nM; setting: whole 134-nt RNA, ends assumed; with: 150 mM KCl; reference: input library; direction: higher = stronger binding; endpoint: log2 enrichment
Target: Fragile X messenger ribonucleoprotein 1, C-terminal low-complexity region (Fmr1, Mus musculus, UniProt P35922)
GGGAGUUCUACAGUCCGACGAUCACCAUGCAGGUGGGCAUCUUUGGGAUGUGGGGCAAGGGGGGGAUAGGGAGGGGGGUAACACUUUGGGAACAGGUGGUCCCAGGUCGUUUCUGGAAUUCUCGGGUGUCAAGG: 0.767
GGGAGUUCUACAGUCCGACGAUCUCCUGUGCUACACAUCGUAUGUACCGAAUCGGAAAAAAGGAAAAAAGGGGAAAAAAGGGAAAGUAUUAUGUUACGCCGUUCGGAUCUGCAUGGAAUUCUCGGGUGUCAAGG: -0.442
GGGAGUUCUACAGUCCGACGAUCCUCAAGUCCUGUGCUACACAUCGUAUGUACCGAAUCGGGGUUGGUUGGUUGGGGAAAGUAUUAUGUUACGCCGUUCGGAUCUGCACUUCCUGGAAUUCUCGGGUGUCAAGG: 0.24
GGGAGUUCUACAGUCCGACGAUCAAAGCAAGAGAUGGCUAGUGCUUCAUCCAGCCAAAGAGGUAUGCUUGUUGCUUAAUUAAACCUUAAAGGUAACUUUGAGUUACUCCAGUAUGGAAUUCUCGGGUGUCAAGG: -0.876
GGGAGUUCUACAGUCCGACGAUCUGUGCUACACAUCGUAUGUACCGAAUCGGGGCCCCCCCGGGGCCCCCCCGGGCCCCCCCGGGGAAAGUAUUAUGUUACGCCGUUCGGAUCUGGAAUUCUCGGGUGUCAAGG: -1.73
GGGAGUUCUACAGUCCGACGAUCUGGGGUAGACCAGUUCCAUGGCACUGAAUAUGUGUGCUGCCCUCAGACAAAGAUUAUUGGAUCUGUGUCAAAAGAAGAGGAAGAGGAAGAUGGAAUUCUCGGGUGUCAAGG: -1.2
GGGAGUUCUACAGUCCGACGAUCUGGCCCUGGUGGCAUGCGGGGAGGAAGAGGUGGCCUCAUGGAUCGUGGUGGUCCCGGUGGAAUGUUCAGAGGUGGCCGUGAUGGAGACAGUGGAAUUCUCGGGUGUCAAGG: -0.0972
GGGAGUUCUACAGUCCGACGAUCCAAGUCCUGUGCUACACAUCGUAUGUACCGAAUCGGUUUUUGGUUUUUGGAAAGGAAAGUAUUAUGUUACGCCGUUCGGAUCUGCACUUCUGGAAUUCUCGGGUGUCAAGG: -0.761
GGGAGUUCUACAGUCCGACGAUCCCUCAAGUCCUGUGCUACACAUCGUAUGUACCGAAUCGGAGGAGGGGAGGGGAAAGUAUUAUGUUACGCCGUUCGGAUCUGCACUUCCAGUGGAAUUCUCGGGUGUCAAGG: 0.481
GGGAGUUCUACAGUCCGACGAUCUCAAGUCCUGUGCUACACAUCGUAUGUACCGAAUCGGGUUUUUGGGUGGGUGGGAAAGUAUUAUGUUACGCCGUUCGGAUCUGCACUUCCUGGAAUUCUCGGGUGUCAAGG: 1.14
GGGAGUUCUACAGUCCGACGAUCGCUUUGCCUUCACUUAUUUCUUUGCUUUUUAAAAACUAUUUGUAAUGUAAUUUUAAUGCAUUUUUUACAGGCCCAGUAAUGGUUAAAUACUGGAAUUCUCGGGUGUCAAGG: -0.0177
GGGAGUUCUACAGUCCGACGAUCCAAGUCCUGUGCUACACAUCGUAUGUACCGAAUCGGUUUGGAAAAAGGAAAAAGGAAAGUAUUAUGUUACGCCGUUCGGAUCUGCACUUCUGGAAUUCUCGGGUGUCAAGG: -0.643
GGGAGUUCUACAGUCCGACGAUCGGGUGGACACUGACGAGCUGGACAGCAACGUGGACGACUGGGAAGAGGAGACCAUUGAGUUCUUCGUCACUGAAGAAAUCAUUCCCCUCGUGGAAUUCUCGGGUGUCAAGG: -0.985
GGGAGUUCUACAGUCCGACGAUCGCAGGAAGUAAAAACAAAUGGAAAUGCUUCGGAUAGUGGCAGGGGUGCGGGUUGCUAAGGAAAGGGUGGGAUGGGAGUGGGUAAAGAGUUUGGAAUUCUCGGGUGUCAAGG: 0.312

Set 2 — technique: protein binding microarray; form: double-stranded DNA, one strand shown; medium: in vitro; tested at: not given; reference: not given; direction: higher = stronger binding; endpoint: E-score
Target: Histone acetyltransferase KAT6A, winged helix 2, GST fusion (KAT6A, Homo sapiens, UniProt Q92794, residues 85-181)
Setting: 8-mer, flanks averaged, mean of 2 arrays, mostly near background
Construct (chain): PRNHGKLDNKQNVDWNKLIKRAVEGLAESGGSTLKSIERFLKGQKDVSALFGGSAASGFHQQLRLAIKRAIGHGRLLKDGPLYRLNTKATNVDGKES
AGGACCTA: 0.0415
TACCGGAA: 0.00035
CGCGGGTA: 0.0289
GTTTTACA: -0.109
ACAAGTGT: -0.114
CACGATAA: 0.0998
ACTCCCTA: -0.00366
ACCCTAAT: -0.126
ACCTTGAA: -0.0118
CGCGCGTC: 0.0997
GGCGTTCA: 0.143
AATACGAT: -0.151
AGGATACC: 0.0473
GACGCTCC: 0.0882
GCTGGAGA: 0.0318
AATCGGAT: 0.129
AATTTGTA: -0.0702
CCTCAAAG: 0.138
CCCGGCCA: 0.175
GGTGGTAA: 0.0847
CAGATAAG: 0.00907

Set 3 — technique: competition protein-binding microarray; form: double-stranded DNA, one strand shown; medium: in vitro; tested at: 2 µM; with: Cbf1 competitor, 0.05 µM; direction: higher = stronger binding; endpoint: fluorescence intensity
Target: Phosphate system positive regulatory protein PHO4, full length, GST-tagged (PHO4, Saccharomyces cerevisiae, UniProt P07270, residues 1-312)
Setting: whole 60-bp probe, lowest competitor level
Residues (chain): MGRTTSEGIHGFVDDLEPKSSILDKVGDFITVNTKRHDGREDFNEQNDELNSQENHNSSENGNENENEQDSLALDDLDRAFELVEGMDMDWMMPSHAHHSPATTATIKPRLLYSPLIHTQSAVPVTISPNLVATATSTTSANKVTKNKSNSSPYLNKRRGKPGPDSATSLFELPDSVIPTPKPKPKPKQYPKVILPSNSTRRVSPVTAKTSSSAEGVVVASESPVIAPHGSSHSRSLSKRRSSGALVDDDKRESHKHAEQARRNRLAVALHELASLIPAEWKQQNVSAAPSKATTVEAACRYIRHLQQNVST
CAGCGCTAAGGACATGCCGTGATGGCATCAACCGGCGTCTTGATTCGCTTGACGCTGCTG: 4620 a.u.
TAATTGATTGGTTACCACGTAAATTCTTGAGCCTTTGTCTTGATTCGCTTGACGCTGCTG: 3850 a.u.
GCCAAAGTGGTCTTTCACATGCTTACCTACCCGCTAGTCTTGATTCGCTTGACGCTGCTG: 5740 a.u.
CTAACGAAGGTTTGCCCTGTGGGTGACAAGCCAAGTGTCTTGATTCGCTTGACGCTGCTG: 4390 a.u.
CTTTCCCGATCTTGCCGTGTGGGTGTAGCACATTTGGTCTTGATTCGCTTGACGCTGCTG: 6140 a.u.
TGCGCAACAACTTGATAAGTGGGTGTATGTCTAGAAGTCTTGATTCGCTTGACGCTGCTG: 4410 a.u.
ACTTGGCAGTAAGAACACGTGTCGGTACCGGAGCGGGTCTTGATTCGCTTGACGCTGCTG: 17100 a.u.
ATGCGAGACTTGGATAACGTGTTGAGCATCGAAATAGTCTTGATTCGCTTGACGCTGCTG: 8940 a.u.
TAAGGCCTCGGCTGGCACATGAGTCGCCGGAGGAGGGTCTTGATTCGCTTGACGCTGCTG: 5880 a.u.
TAAATGGTTCAAATTCACGTGGGTAATAATATGATTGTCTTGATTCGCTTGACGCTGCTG: 16500 a.u.
GCGTCCTGTAAAGAGAGCGTGCGATAAGCCGCTATTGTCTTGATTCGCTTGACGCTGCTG: 7740 a.u.
GTACTTGTTTCCGTTTCCGTGCCAGGCTAGATCCATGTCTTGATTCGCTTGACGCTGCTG: 4810 a.u.
CGTCCTAGTGATTGTCACACCACTTCCATGAGGAAGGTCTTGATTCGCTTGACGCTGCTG: 5440 a.u.
TCAGATGCGCTGATGGGCGTGCTTTACACCCATCAGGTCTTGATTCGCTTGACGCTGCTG: 7000 a.u.
CATACCCAACCTTGATATGTGGGTGAAGATATTTGTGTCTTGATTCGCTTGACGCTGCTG: 4160 a.u.
CATACCCAACCTTGCCTGGTGGGTGAAGATATTTGTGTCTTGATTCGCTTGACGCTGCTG: 4590 a.u.
CGTCCTAGTGATTGCACAGTGGGTGCCATGAGGAAGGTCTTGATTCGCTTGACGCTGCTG: 6790 a.u.
GTATAATCTCTGAGGTGCGTGGTGAGGGACTGCTTAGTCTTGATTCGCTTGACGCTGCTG: 9450 a.u.
AAAGCGGTAATTTGGCACGTGTTTTCACATATCTATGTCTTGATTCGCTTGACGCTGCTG: 18500 a.u.
ACTTTTATCGGTTCATGTGTGACGGCTCAGCTCGTCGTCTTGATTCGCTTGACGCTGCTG: 5640 a.u.
GAGGTTGGTACTATGAACGTGTTCCTGGTTTTCCTGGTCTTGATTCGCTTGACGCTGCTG: 9480 a.u.
TCAAATATGCACCATCTCGTGATGGTTCAAAGATTGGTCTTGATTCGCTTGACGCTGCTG: 6360 a.u.
TGTGATTCCTCGGGCCACGTGAAATGAATCAGCCCTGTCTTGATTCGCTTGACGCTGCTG: 13900 a.u.
AAAGCGGTAATTTGTCACCACACTTCACATATCTATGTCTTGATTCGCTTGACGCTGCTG: 4970 a.u.
AAATTACTAAGTTGTGAAGTGGGTGACGCCGTATGAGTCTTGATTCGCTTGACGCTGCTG: 3830 a.u.

Set 4 — technique: universal PBM; form: double-stranded DNA, one strand shown; medium: in vitro; tested at: not given; direction: higher = stronger binding; endpoint: E-score
Target: Sal-like protein 4, full length isoform B (SALL4, Homo sapiens, UniProt Q9UJQ4-2, residues 1-616)
Setting: 8-mer, flanks averaged, mean of replicates
CCGTCGCC: -0.277
CGAGAAGC: -0.0984
CGTACTTA: 0.105
AAAGAGGA: -0.172
GATAGAAC: 0.118
CTCATGGC: -0.179
GCGTTGGA: -0.181
CCATGCCA: -0.0579
TAGTTACA: 0.069
ATGATCAG: 0.217
GCGAGGCA: -0.152
CTTTGACA: 0.112
CAGTCGAC: 0.0267
GTAACTAA: 0.0445
TGAACACA: 0.15
CAACCGGG: -0.34
ACGTTGAG: -0.0223
AGTCTTAC: 0.0892
ACGTGGAA: 0.0408
TAACCGAA: 0.0551
TTCGGAAA: -0.0489
CTCGGTGC: -0.378
GCCATATA: 0.252
ACCCGAAT: 0.0139
AGGTGCGC: -0.169

Set 5 — technique: protein-binding microarray; form: double-stranded DNA, one strand shown; medium: in vitro; tested at: 940 nM top; setting: 60-bp whole probe; with: salmon DNA 0.4 mg/ml; reference: random background probes; direction: higher = stronger binding; endpoint: fitted relative affinity; shared flanks, not repeated: GCCTAGCAC … GTCTTGATTCGCTTGACGCTGCTG
Target: Interferon regulatory factor 5, full length, phosphomimetic (IRF5, Homo sapiens, UniProt Q13568-2, residues 1-514, S451D/S453D/S456D/S462D)
TTATATATCAGTTTCGATTAGTGCTAG: 8.58 z-score
TTAGGTATCGGGTTCCGGTTAGTGCTA: 5.92 z-score
TTAGGTATTGGTCTCGGTTAGTGCTAG: 4.67 z-score
TCATCTTGCAGTATGGAACTGTGCTAG: -0.102 z-score
GACGGTTTCGACAATGGGGACGTGCTA: 6.91 z-score
TTAGGACTCGGACTGGGTTAGTGCTAG: -0.497 z-score
TCACCTCTGCATTCCCTACTGTGCTAG: 0.769 z-score
GCCGGACTGCTTATCCTGACGTGCTAG: -0.683 z-score
GACCGTATCGGTATCGGGACGTGCTAG: 5.89 z-score
TTAGTTTTCGGGTATCGATTAGTGCTA: 5.25 z-score
GACGGACTGGGACTGGTGACGTGCTAG: -0.639 z-score
GACGGACTGCTTTACCTGACGTGCTAG: -0.49 z-score
CTAGATTTCAGTATCGATTAGTGCTAG: 6.09 z-score
GACGGTATCCTTCCCCTGACGTGCTAG: 0.451 z-score
GACGATTACAGTTTCGAGACGTGCTAG: 3.64 z-score
TTAGGTAACGGTCTCGGTTAGTGCTAG: 1.78 z-score
ATGGCTTTGCCTTTTGCTTTGTGCTAG: -0.678 z-score
CCAAACCTGTGCGCCGTGCCGTGCTAG: -0.307 z-score
CTTCTTTTGCTAATTTTTTTGTGCTAG: 1.67 z-score
ATATTGATGGCTCTCTGGACGTGCTAG: -0.178 z-score
TTAGGGTTCGACTATCGGTTAGTGCTA: 0.371 z-score
CCAACACTCGGTTTCCAAATGTGCTAG: 0.357 z-score
TGGGAAATTCCTCTGAATAGGTGCTAG: -0.276 z-score
TTAGATTTCACTTCCGATTAGTGCTAG: 1.97 z-score

For quick reference, copied from above (set 2):
AGGACCTA: 0.0415
TACCGGAA: 0.00035
CGCGGGTA: 0.0289
GTTTTACA: -0.109
ACAAGTGT: -0.114
CACGATAA: 0.0998
ACTCCCTA: -0.00366
ACCCTAAT: -0.126
ACCTTGAA: -0.0118
CGCGCGTC: 0.0997
GGCGTTCA: 0.143
AATACGAT: -0.151
AGGATACC: 0.0473
GACGCTCC: 0.0882
GCTGGAGA: 0.0318
